{"data": "Experimental data gathered from unrelated publications", "medium": "plasma", "note": "Each line is one published result; not all experiments were run side by side. Numbers after ± are the reported error."}
{"SMILES": "[2H]C([2H])([2H])NC(=O)c1ccc(N2C(=S)N(c3ccc(C#N)c(C(F)(F)F)c3)C(=O)C2(C)C)cc1F", "system": "healthy male human", "conditions": "oral, 160 mg, fasted, single dose", "AUC(0-inf)": "758 µg·h/mL"}
{"SMILES": "Cn1c(=O)oc2ccc(-c3ccc(CC(C#N)NC(=O)C4CNCCCO4)c(F)c3)cc21 (stereo not shown)", "system": "human", "conditions": "20 mg once daily, day 28, geometric mean", "AUC(0-inf)": "3.77 µg·h/mL"}
{"SMILES": "CC(=O)N[C@H](CC(=O)O)C(=O)N[C@H](Cc1c[nH]c2ccccc12)C(=O)N[C@H](Cc1ccccc1)C(=O)N[C@H](CCCCN)C(=O)N[C@H](C)C(=O)N[C@H](Cc1ccccc1)C(=O)N[C@H](Cc1ccc(O)cc1)C(=O)N[C@H](CC(=O)O)C(=O)N[C@H](CCCCN)C(=O)N[C@@H](C(=O)N[C@H](C)C(=O)N[C@H](CCC(=O)O)C(=O)N[C@H](CCCCN)C(=O)N[C@H](Cc1ccccc1)C(=O)N[C@H](CCCCN)C(=O)N[C@H](CCC(=O)O)C(=O)N[C@H](C)C(=O)N[C@H](Cc1ccccc1)C(N)=O)C(C)C", "system": "human, statin-treated high-risk CHD, female", "conditions": "oral, 500 mg daily, day 13, mean, detected subjects, outlier woman excluded", "AUC(0-inf)": "0.304 µg·h/mL"}
{"SMILES": "CCc1c2c(nc3ccc(O)cc13)-c1cc3c(c(=O)n1C2)COC(=O)[C@]3(O)CC", "system": "human patients", "conditions": "intravenous, 6 mg/m^2 of parent drug", "AUC(0-inf)": "0.017 µg·h/mL"}
{"SMILES": "CC[C@H](C)[C@H](NC(=O)[C@H](CC(C)C)NC(=O)[C@H](Cc1c[nH]c2ccccc12)NC(=O)[C@H](C)NC(=O)[C@@H](NC(=O)[C@H](Cc1ccccc1)NC(=O)[C@H](CC(=O)O)NC(=O)[C@H](CCCNC(=N)N)NC(=O)[C@H](C)NC(=O)[C@H](C)NC(=O)[C@H](CC(C)C)NC(=O)[C@H](C)NC(=O)[C@H](CC(=O)O)NC(=O)[C@H](CC(C)C)NC(=O)[C@@H](NC(=O)[C@@H](NC(=O)[C@H](C)NC(=O)[C@H](CC(C)C)NC(=O)[C@H](CCC(=O)O)NC(=O)[C@H](CO)NC(=O)[C@H](CO)NC(=O)[C@H](Cc1ccccc1)NC(=O)[C@@H](NC(=O)CNC(=O)[C@H](CCC(=O)O)NC(=O)CNC(=O)[C@@H](N)Cc1cnc[nH]1)[C@@H](C)O)[C@@H](C)O)[C@@H](C)CC)[C@@H](C)CC)C(=O)N[C@@H](C)C(=O)N[C@H](C(=O)N[C@@H](CCCCN)C(=O)N[C@H](C(=O)N[C@H](C(=O)N[C@@H](CC(=O)O)C(=O)N[C@@H](CCCCN)C(=O)N[C@@H](CCCCN)C(=O)N[C@@H](CCCCN)C(=O)N[C@@H](CCCCN)C(=O)N[C@@H](CCCCN)C(=O)N[C@@H](CCCCN)C(N)=O)[C@@H](C)O)[C@@H](C)CC)[C@@H](C)O", "system": "healthy humans", "conditions": "intravenous infusion, 1 mg single dose, 15 min infusion, geometric mean", "AUC(0-inf)": "44.2 nM·h"}
{"SMILES": "CC(C)(O)c1ncc([S@](N)(=O)=NC(=O)Nc2c3c(cc4c2CCC4)CCC3)s1", "system": "healthy human volunteers", "conditions": "oral, 3 mg single dose, fasted, capsule formulation", "AUC(0-inf)": "3.17 µg·h/mL"}
{"SMILES": "O=C(CCc1ccc(CNC(C(=O)O)C2CCCCC2)cn1)NO (stereo not shown)", "system": "healthy male humans", "conditions": "oral, 20 mg, single dose, geometric mean", "AUC(0-inf)": "0.0655 µg·h/mL"}
{"SMILES": "CN1CCC[C@]1(C)/C=C/S(=O)(=O)NC(=O)Nc1c2c(cc3c1CCC3)CCC2", "system": "human", "conditions": "oral, 400 mg single dose", "AUC(0-inf)": "342 µg·h/mL"}
{"SMILES": "O=C(CCc1ccc(CNC(C(=O)OC2CCCC2)C2CCCCC2)cn1)NO (stereo not shown)", "system": "human", "conditions": "oral, 40 mg single dose, geometric mean", "AUC(0-inf)": "0.157 µg·h/mL"}
{"SMILES": "CN[C@@H](CCOc1cccc2ccccc12)c1ccccc1", "system": "healthy male humans", "conditions": "oral, 60 mg of dapoxetine, together with: udenafil 200 mg", "AUC(0-inf)": "0.218 ± 0.146 µg·h/mL"}
{"note": "For quick reference, copied from above:"}
{"SMILES": "O=C(CCc1ccc(CNC(C(=O)OC2CCCC2)C2CCCCC2)cn1)NO (stereo not shown)", "system": "human", "conditions": "oral, 40 mg single dose, geometric mean", "AUC(0-inf)": "0.157 µg·h/mL"}
